Measured values collected from several papers.
Parts stem from different laboratories: compare values within a part only.

Set 1 — technique: protein-binding microarray; molecule type: double-stranded DNA, one strand shown; matrix: in vitro; tested at: 0.8 µM; notes: whole 60-bp probe, no competitor; direction: higher = stronger binding; all sequences stand within: … GTCTTGATTCGCTTGACGCTGCTG
Target: Centromere-binding protein 1, full length, N-terminal tag (CBF1, Saccharomyces cerevisiae, UniProt P17106, residues 1-351)
Sequence of UniProt P17106 (whole entry, looked up): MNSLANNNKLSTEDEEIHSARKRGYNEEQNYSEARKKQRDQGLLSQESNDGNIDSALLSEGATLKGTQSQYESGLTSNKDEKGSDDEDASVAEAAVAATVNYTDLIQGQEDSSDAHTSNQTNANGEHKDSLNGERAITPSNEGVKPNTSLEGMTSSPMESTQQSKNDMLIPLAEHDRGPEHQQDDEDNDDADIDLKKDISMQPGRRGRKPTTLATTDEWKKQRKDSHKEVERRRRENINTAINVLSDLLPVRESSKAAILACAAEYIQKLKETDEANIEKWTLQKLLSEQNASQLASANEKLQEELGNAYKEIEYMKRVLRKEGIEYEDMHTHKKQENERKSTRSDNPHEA
Oligonucleotide	fluorescence intensity
CTACGAATACGTTTTCTCATGACCATTGTACTATTC	555 a.u.
GAAAGGCTTTTAAACGTGATTGTGTTGTATCTCTAG	753 a.u.
TGTACGAAGCTATGATGACGTGGTATAGTAGTTAGG	538 a.u.
GAAACAAGCAGACACGTGGAGAAAAGCCAGGAGTAG	3500 a.u.
GAAGGATCTTTCTAACGTGTGTTGTCTACTAGTTAG	537 a.u.
CCTAACTACTATAATCTGATTGGATAGCTTCGTACA	525 a.u.
GAATCTGGAGTAATTCTCGTGATCTTGTTTAATTAG	1060 a.u.
TGTACGAAGCTATATGCCGTGACTATAGTAGTTAGG	633 a.u.

Set 2 — technique: aptamer microarray, sandwich; molecule type: DNA with 2'F-ANA; matrix: in vitro; tested at: 200 nM; with: Cy3 exosite-II aptamer, 400 nM; direction: higher = stronger binding; oligonucleotide: GGTTGGTGTGGTTGG
Target: Prothrombin, mature alpha-thrombin (F2, Homo sapiens, UniProt P00734)
Notes: whole 15-mer aptamer, many near background
Modification	mean fluorescence intensity
2'F-ANA at 1 5 8 10 11 12 14	106 a.u.
2'F-ANA at 1 4 5 9 10 13 14	43.6 a.u.
2'F-ANA at 2 6 9 10 11 14	88.5 a.u.
2'F-ANA at 1 3 6 7 11	250 a.u.
2'F-ANA at 1 8 9 10 11 13 15	56.8 a.u.
2'F-ANA at 1 4 10 11 13 15	49.3 a.u.

Set 3 — technique: protein-binding microarray; molecule type: double-stranded DNA, one strand shown; matrix: in vitro; tested at: 940 nM top; notes: 60-bp whole probe; with: salmon DNA 0.4 mg/ml; reference: random background probes; direction: higher = stronger binding; all sequences stand within: GCCTAGCAC … GTCTTGATTCGCTTGACGCTGCTG
Target: Interferon regulatory factor 5, full length, phosphomimetic (IRF5, Homo sapiens, UniProt Q13568-2, residues 1-514, S451D/S453D/S456D/S462D)
Oligonucleotide	fitted relative affinity [z-score]
TCAGGTTTTACTTTCTAACTGTGCTAG	1.34
GACGTACTGAGTTTCGAGACGTGCTAG	2.75
TTAGGTTTCGGTTCCGCTTAGTGCTAG	14.2
ATATATATCATTTAATTATAGTGCTAG	0.464
ATTTTTATCAAATGTGGGATTGTGCTA	-0.148
GACGGTTTCGGTTTCCGGACGTGCTAG	15.4

Further values, each from its own experiment
Substance	target	test	test system	conditions	scale	endpoint	value
PhoQ, residues 284 288 289 292 302 303 DDMDFR	PhoP, residues 12 14 15 18 19 NMSFL (Escherichia coli, UniProt P23836)	Sort-seq, item: YFP reporter	E. coli	PhoQ-PhoP variant library, with: 10 µM Mg2+	reference: high Mg2+ state, higher = stronger signaling	fold induction	0.711

Excerpt of the above (set 1):
Oligonucleotide	fluorescence intensity
GAAAGGCTTTTAAACGTGATTGTGTTGTATCTCTAG	753 a.u.
TGTACGAAGCTATGATGACGTGGTATAGTAGTTAGG	538 a.u.
GAAACAAGCAGACACGTGGAGAAAAGCCAGGAGTAG	3500 a.u.
